Published values of several laboratories.
Compare with care: the assays were run in different laboratories.
B1: erenumab; V domains shown; sequence looked up; VH QVQLVESGGGVVQPGRSLRLSCAASGFTFSSFGMHWVRQAPGKGLEWVAVISFDGSIKYSVDSVKGRFTISRDNSKNTLFLQMNSLRAEDTAVYYCARDRLNYYDSSGYYHYKYYGMAVWGQGTTVTVSS; VL QSVLTQPPSVSAAPGQKVTISCSGSSSNIGNNYVSWYQQLPGTAPKLLIYDNNKRPSGIPDRFSGSKSGTSTTLGITGLQTGDEADYYCGTWDSRLSAVVFGGGTKLTVL
B2: CRABP2 (Homo sapiens, UniProt P29373); chain MPNFSGNWKIIRSENFEELLKVLGVNVMLRKIAVAAASKPAVEIKQEGDTFYIKTSTTVRTTEINFKVGEEFEEQTVDGRPCKSLVKWESENKMVCEQKLLKGEGPKTSWTRELTNDGELILTMTADDVVCTRVYVRE
Sequence of UniProt P49685 (whole entry, looked up): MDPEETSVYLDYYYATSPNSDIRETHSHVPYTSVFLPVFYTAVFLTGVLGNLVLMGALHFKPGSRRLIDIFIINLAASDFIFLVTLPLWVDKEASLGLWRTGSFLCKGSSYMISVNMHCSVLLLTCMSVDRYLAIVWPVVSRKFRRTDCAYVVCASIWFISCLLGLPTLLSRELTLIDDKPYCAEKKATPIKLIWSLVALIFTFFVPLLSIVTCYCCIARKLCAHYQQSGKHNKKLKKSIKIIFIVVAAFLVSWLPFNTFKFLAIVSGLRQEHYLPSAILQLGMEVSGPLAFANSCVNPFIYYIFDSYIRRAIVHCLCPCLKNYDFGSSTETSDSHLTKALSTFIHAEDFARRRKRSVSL
Sequence of UniProt P49682 (whole entry, looked up): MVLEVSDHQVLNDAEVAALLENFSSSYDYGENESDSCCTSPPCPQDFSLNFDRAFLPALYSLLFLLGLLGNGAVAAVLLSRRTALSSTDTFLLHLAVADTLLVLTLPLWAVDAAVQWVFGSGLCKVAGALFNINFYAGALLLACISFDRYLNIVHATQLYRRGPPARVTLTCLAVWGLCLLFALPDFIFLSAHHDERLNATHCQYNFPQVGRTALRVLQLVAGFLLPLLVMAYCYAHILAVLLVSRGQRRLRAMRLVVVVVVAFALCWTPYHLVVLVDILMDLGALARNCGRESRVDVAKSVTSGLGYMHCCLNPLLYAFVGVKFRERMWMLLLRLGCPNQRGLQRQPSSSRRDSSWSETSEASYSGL
Sequence of UniProt O60656 (whole entry, looked up): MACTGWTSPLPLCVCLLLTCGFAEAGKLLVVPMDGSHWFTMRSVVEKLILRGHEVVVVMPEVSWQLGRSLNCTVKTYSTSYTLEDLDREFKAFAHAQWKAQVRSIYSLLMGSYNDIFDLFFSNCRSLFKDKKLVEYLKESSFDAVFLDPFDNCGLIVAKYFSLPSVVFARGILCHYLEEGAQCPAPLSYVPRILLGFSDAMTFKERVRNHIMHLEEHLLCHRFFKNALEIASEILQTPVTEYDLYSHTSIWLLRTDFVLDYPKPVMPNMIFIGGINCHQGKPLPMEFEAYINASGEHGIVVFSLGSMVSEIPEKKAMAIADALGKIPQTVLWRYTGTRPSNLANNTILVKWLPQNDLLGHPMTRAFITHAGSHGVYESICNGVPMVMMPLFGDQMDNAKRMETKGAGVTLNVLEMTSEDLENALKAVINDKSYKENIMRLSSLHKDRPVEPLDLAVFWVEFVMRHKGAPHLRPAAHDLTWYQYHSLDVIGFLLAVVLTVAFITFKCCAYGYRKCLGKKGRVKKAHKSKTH
Sequence of UniProt P11798 (whole entry, unmodified, looked up): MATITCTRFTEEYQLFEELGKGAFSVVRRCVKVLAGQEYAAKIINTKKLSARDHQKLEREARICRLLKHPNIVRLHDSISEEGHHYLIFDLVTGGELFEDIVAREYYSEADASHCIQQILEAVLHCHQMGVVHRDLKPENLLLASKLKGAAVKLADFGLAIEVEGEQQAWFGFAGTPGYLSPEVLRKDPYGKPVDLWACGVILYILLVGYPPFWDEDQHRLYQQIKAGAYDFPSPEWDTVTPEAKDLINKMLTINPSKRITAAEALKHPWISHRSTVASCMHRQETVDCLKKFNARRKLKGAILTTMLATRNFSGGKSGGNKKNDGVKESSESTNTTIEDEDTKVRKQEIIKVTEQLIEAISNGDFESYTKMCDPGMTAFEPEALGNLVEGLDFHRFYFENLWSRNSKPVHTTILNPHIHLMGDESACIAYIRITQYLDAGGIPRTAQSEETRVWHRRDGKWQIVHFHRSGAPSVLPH
Sequence of UniProt P10632 (whole entry, looked up): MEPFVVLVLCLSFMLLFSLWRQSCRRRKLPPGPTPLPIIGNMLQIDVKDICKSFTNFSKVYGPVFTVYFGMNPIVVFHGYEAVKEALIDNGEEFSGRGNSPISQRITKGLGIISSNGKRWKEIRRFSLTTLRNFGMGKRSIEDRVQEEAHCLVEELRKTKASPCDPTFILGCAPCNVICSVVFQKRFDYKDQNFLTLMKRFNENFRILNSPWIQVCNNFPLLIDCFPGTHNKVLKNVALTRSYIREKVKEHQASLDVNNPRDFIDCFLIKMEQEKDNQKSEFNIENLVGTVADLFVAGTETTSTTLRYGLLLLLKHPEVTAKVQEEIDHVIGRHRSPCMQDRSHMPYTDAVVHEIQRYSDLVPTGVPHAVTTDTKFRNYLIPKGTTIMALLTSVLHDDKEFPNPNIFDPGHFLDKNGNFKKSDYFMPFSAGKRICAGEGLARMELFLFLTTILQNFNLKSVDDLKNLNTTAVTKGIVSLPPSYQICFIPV
Sequence of UniProt O05209 (whole entry, looked up): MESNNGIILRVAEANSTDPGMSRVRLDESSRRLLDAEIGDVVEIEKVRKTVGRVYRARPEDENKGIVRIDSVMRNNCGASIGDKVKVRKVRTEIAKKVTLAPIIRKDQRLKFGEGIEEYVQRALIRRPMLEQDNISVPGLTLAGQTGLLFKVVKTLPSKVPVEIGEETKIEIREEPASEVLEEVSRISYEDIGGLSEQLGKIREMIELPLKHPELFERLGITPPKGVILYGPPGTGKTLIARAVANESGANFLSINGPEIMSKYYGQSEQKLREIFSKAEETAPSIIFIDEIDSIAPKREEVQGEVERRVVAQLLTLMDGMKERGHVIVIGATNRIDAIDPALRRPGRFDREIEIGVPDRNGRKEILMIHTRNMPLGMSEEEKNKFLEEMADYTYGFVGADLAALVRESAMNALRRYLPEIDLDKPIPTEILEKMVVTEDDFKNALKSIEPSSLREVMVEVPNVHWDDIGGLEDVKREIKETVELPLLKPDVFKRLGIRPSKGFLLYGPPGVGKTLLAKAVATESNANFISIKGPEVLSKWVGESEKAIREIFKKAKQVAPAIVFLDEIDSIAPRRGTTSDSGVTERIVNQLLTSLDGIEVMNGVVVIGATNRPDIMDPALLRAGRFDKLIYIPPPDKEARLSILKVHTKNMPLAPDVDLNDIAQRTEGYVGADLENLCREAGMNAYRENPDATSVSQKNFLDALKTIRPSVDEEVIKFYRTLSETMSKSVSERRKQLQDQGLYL
Sequence of UniProt P25156 (whole entry, looked up): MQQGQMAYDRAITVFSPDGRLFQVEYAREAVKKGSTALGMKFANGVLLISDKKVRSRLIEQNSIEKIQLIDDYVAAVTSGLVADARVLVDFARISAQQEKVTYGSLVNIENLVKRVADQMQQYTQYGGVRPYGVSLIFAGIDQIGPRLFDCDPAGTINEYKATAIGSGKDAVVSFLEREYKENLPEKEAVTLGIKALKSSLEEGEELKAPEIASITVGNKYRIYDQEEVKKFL
Sequence of UniProt P02778 (whole entry, looked up): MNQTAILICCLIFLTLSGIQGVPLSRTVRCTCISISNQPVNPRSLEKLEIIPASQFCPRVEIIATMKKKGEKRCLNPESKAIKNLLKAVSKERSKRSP
Sequence of UniProt P00519 (whole entry, looked up): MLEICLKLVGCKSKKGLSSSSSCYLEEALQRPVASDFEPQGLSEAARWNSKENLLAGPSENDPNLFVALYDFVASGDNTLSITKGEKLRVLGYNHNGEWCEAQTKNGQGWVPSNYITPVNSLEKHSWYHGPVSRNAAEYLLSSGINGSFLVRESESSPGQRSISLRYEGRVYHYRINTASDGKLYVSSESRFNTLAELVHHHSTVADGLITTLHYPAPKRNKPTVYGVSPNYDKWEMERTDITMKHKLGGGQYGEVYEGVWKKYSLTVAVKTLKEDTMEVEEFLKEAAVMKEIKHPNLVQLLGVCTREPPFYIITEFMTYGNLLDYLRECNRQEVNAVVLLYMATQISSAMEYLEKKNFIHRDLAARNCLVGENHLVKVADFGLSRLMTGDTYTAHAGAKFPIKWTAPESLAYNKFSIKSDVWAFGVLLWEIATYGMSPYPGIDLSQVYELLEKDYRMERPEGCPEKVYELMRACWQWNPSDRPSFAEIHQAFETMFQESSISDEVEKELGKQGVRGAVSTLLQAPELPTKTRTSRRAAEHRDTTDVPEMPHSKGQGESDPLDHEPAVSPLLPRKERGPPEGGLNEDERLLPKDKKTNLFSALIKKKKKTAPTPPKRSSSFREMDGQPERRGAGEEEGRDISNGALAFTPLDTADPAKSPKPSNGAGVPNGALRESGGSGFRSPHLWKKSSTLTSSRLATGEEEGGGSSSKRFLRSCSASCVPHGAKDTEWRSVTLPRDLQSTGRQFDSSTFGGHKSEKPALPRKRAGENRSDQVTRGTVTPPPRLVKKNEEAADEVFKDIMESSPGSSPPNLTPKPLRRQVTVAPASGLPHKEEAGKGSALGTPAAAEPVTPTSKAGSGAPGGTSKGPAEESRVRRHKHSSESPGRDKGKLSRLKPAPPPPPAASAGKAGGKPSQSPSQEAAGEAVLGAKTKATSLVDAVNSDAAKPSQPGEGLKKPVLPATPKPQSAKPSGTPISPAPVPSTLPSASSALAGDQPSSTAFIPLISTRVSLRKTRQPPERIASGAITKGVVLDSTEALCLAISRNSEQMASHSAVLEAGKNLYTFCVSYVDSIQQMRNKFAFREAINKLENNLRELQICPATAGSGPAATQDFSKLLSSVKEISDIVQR
Sequence of UniProt P01589 (whole entry, looked up): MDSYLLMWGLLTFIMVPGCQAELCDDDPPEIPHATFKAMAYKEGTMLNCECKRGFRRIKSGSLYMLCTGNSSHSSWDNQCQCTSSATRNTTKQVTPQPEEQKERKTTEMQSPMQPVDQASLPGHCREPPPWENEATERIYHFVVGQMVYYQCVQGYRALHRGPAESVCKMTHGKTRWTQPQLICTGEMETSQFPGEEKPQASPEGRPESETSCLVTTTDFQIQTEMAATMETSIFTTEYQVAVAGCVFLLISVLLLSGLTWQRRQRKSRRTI

| Substance | tested on | test | test system | setting | how to read | measurement | value |
| --- | --- | --- | --- | --- | --- | --- | --- |
| MSH5 fragment del of five Pro residues (Homo sapiens) | ABL1 61-121 (Homo sapiens, UniProt P00519) | β-galactosidase activity, two-hybrid | L40 yeast |  | reference: wild-type hMSH5, higher = greater loss of binding | reduction of interaction | 60% |
| IL2 Y45K/E62K/N90R/T131R (Homo sapiens) | IL2RA (Homo sapiens, UniProt P01589) | flow cytometry | human PBMCs |  | reference: wildtype IL2, higher = greater reduction | pSTAT5+ Tregs | 3000 fold |
| QDQGLYL (VAT 739-745 (Thermoplasma acidophilum, UniProt O05209)) | 20S proteasome core particle (Thermoplasma acidophilum, UniProt P25156) | LFP hydrolysis, activator | peptide | 0.6 nM CP, 59 °C | reference: TaCP alone, higher = more fluorescence | peptide hydrolysis | 2 fold |
| RRRRRRC / CGSFPPWVQKTEV (peptide; cyclic, disulfide-linked poly-Arg) | DLG4 309-422 (Homo sapiens, UniProt P78352) | SPR | peptide |  |  | koff | 0.0312 s⁻¹ |
| CXCL10 (UniProt P02778) | CXCR3 (Homo sapiens, UniProt P49682) | inhibition of forskolin-raised cAMP, agonist | HEK293 |  |  | LogEC50 | -10 |
| IGF1 (Homo sapiens, UniProt P05019) | IGF1R (Gallus gallus) | process branching | embryonic spinal motoneurons | 0.1-10 nM | reference: no hormone, higher = more branching | branching points per neuron | 1.25 |
| B1 (erenumab) | CALCRL/RAMP1 on cells (Homo sapiens) | cAMP production, antagonist | antibody, HEK293S | no preincubation, added: αCGRP 3 nM |  | pIC50 | 7.61 |
| B2 (CRABP2) | CYP2C8 (Homo sapiens, UniProt P10632) | 4-OH-RA formation, inhibitor | Supersomes | added: holo-CRABP-II 1 µM | reference: free atRA, higher = less product | decrease of product formation | 99% |
| CALM1 holo (Homo sapiens, UniProt P0DP23) | Nos1 (Rattus norvegicus, UniProt P29476) | optical stopped-flow |  | CaM pre-incubated, added: NADPH, holo CaM |  | heme reduction rate | 26.3 s⁻¹ |
| UGT1A9 (Homo sapiens, UniProt O60656) | COc1ccc(-c2coc3cc(O)ccc3c2=O)cc1 | steady-state kinetics |  | pH 7.4, 37 °C |  | Km | 4.59 µM |
| EPEPRLWVVPGALPQV (C10ORF99 66-81 (Homo sapiens)) | GPR15 (Homo sapiens, UniProt P49685) | intracellular Ca2+, agonist | peptide, CHO |  | lower = more potent | concentration of peak response | 10 nM |
| Camk2a, pT286 (Mus musculus, UniProt P11798) | Cacnb2 β2a L493A (Rattus norvegicus) | plate-binding assay |  | L493A mutant | reference: wild-type His-β2a, higher = greater reduction in binding | relative binding | 50% |
| TPDYLMALMNDKKLMSSLPNFSGIFNHLERLLDEEISRVRKDMYNDTLNGSTEK (Qki 14-67 C35S/Q20A (Mus musculus, UniProt Q9QYS9)) | itself | CD thermal melting |  | 50 µM |  | melting temperature | 65 °C |
| ribosomes whole ribosome (Rattus norvegicus) | CRIP3 active 22-286 del163-164/del167-189 (Zea mays, UniProt P28522) | SPR |  | 60 nM |  | dissociation end response | 60 RU |

Repeated from above:
| Substance | tested on | test | test system | setting | how to read | measurement | value |
| --- | --- | --- | --- | --- | --- | --- | --- |
| TPDYLMALMNDKKLMSSLPNFSGIFNHLERLLDEEISRVRKDMYNDTLNGSTEK (Qki 14-67 C35S/Q20A (Mus musculus, UniProt Q9QYS9)) | itself | CD thermal melting |  | 50 µM |  | melting temperature | 65 °C |
| B1 (erenumab) | CALCRL/RAMP1 on cells (Homo sapiens) | cAMP production, antagonist | antibody, HEK293S | no preincubation, added: αCGRP 3 nM |  | pIC50 | 7.61 |
